# Results collected from several papers.
# Protocols differ between the studies behind these lines.
# Target: Serine/threonine-protein kinase DCLK3 (DCLK3, Homo sapiens, UniProt Q9C098)
SMILES,test,setting,how to read,quantity,value
Nc1ncc2c(n1)-c1c([nH]c3ccc(C4=CCOCC4)cc13)CCC2,"binding, competition with immobilised ligand",1 µM,,remaining binding,100%
CNC(=O)C1CCN(c2cc(C)c(F)cc2NC(=O)c2ccc(-c3cc(O)ccc3C)c(C)c2)CC1,"binding, competition with immobilised ligand",1 µM,,remaining binding,100%
C[C@]1(O)CCCN(c2nc(Nc3ccc(S(=O)(=O)N[C@H]4CC[C@H](CN5CCN(c6ccc(C7CCC(=O)NC7=O)cc6F)CC5)CC4)cc3)ncc2C(F)(F)F)C1 (stereo partly shown),"binding, competition with immobilised ligand",1 µM,,remaining binding,3.3%
Cc1ccc(-c2c(/C=C(\C#N)C(=O)NC(C)C)n(CCCO)c3ncnc(N)c23)cc1,"cell-free assay, competition with immobilised ligand",1 µM,,remaining binding,100%
C=CC(=O)N1CCCC(n2c(=O)c3ncccc3n(Cc3ccc(Oc4ccccc4)cc3)c2=O)C1 (stereo not shown),"cell-free assay, competition with immobilised ligand",1 µM,,remaining binding,92%
COc1cc(Nc2nccc(-c3cnn4nc(OC)ccc34)n2)cc(C(F)(F)F)c1,"binding, competition with immobilised ligand",1 µM,,remaining binding,95%
CNC1C[S+]2CC[S+]3CC[S+](C1)[Ru-4]321([N]=C=S)[n]2c3ccc(OC)cc3c3c4c(c5cc(F)c[n+]1c5c32)C(=O)NC4=O (stereo not shown),KinomeScan,0.1 µM,reference: untreated,remaining binding,48%
Cc1cnc2nc1Nc1cccc(c1)COC/C=C/COCc1cc(ccc1OCCN1CCOCC1)N2,"binding, competition with immobilised ligand",0.1 µM,,remaining binding,100%
CN1CC[C@@H](COc2cnc(C#N)cc2-c2ccn3nc(NC(=O)C4CC4)cc3c2)C1,"enzyme activity, inhibitor",1 µM,,inhibition,-7%
C=CC(=O)N1CCc2ccc(-n3c(=O)ccc4cnc5ccc(-c6cnn(C)c6)cc5c43)cc21,KINOMEscan,1 µM,reference: DMSO control,remaining binding,100%
O=C(Cc1ccc(OCc2ccccc2)cc1)NC1(C(=O)O)CCN(C(=O)c2ccc(-c3cccc(Cl)c3)cc2)CC1,"enzyme activity, inhibitor",10 µM,,activity vs control,123%
COc1cc(Nc2nc(C)cc(-c3cnn4nc(OC)ccc34)n2)cc(C(F)(F)F)c1,inhibitor,"1 µM, DCAMKL3",reference: control,remaining activity,100%
CCN1CCN(Cc2ccc(C(=O)Nc3ccc(C)c(NCc4cnc5[nH]ccc5c4OC)c3)cc2C(F)(F)F)CC1,"binding, competition with immobilised ligand",1 µM,,remaining binding,100%
CNC(=O)C[C@H](Cc1ccc(C#N)cc1)NC(=O)c1cc(-c2ccc(CN[C@H](C)c3ccc(C)cc3)o2)ccc1Cl,"enzyme activity, inhibitor",1 µM,,activity vs control,106%
CC(C)=CC1OC(C)(C)C2C=C3C(=O)C(Cl)=CC(O)C3C3C(O)C4OC4C(=O)C132 (stereo not shown),"cell-free assay, competition with immobilised ligand",10 µM,,remaining binding,100%
COc1c(Cl)cccc1Nc1c(-c2ccncc2C#C[C@@]2(C)CCCN2C(=O)/C=C/CN(C)C)[nH]c2c1C(=O)NCC2,"binding, competition with immobilised ligand",3 µM,,remaining binding,100%
